Assay results from different studies.
Every numbered part comes from another study and shows a few of its results, in no order.
Chain of UniProt Q9NSY1 (whole entry, looked up): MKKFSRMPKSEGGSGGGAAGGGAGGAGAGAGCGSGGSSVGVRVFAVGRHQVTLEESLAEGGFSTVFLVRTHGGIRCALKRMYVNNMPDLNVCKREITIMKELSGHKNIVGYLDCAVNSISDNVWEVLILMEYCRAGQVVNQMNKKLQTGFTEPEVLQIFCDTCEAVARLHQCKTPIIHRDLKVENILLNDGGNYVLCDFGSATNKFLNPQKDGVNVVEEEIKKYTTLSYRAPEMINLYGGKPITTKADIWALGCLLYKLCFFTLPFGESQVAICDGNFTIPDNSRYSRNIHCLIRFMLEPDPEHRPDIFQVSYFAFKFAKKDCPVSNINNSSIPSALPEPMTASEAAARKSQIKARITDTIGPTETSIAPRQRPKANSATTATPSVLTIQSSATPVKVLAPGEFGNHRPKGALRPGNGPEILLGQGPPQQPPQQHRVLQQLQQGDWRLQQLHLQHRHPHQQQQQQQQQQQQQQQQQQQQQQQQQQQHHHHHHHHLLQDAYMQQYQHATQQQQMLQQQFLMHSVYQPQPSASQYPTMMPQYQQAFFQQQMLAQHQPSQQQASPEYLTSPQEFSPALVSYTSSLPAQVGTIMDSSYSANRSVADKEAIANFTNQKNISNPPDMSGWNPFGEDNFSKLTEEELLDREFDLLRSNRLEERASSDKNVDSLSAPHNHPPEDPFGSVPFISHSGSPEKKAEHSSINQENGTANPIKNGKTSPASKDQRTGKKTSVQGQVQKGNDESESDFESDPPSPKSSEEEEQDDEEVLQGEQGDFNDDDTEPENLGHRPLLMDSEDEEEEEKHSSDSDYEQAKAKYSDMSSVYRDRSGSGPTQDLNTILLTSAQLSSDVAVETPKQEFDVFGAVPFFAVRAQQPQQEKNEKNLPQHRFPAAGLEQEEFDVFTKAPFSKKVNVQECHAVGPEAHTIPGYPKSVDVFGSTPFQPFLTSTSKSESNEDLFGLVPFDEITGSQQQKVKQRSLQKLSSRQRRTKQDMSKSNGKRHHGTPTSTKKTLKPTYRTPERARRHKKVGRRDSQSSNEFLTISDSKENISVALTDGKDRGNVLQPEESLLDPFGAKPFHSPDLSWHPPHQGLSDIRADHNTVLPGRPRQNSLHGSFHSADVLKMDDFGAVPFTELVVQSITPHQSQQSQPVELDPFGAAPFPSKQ
Chain of UniProt Q5TCX8 (whole entry, looked up): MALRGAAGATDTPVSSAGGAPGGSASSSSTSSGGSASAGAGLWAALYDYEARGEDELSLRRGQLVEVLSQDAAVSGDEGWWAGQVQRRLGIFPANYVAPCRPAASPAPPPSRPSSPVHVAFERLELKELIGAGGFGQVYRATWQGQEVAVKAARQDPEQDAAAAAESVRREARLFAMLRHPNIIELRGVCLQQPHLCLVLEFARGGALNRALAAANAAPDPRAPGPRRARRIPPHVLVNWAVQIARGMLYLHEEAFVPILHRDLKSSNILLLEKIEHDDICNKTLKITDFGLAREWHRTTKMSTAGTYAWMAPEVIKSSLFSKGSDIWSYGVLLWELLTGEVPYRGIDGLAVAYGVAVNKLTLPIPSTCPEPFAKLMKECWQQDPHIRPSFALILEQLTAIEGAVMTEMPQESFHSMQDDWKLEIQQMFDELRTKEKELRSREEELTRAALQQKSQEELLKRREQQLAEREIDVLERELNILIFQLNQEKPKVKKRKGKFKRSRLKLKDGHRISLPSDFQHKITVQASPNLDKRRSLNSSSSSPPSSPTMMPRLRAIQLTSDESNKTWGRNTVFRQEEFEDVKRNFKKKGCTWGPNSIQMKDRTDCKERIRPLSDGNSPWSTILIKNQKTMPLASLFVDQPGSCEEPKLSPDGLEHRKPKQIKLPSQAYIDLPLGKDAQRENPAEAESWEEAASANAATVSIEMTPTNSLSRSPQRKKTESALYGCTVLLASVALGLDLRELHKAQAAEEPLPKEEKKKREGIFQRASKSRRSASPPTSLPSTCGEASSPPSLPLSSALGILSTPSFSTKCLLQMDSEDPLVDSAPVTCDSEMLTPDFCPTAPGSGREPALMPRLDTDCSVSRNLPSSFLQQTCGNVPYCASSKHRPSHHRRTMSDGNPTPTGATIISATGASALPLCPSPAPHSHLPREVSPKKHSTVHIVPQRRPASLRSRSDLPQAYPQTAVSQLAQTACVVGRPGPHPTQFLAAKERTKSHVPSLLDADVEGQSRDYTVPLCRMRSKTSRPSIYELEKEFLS
Chain of UniProt O15264 (whole entry, looked up): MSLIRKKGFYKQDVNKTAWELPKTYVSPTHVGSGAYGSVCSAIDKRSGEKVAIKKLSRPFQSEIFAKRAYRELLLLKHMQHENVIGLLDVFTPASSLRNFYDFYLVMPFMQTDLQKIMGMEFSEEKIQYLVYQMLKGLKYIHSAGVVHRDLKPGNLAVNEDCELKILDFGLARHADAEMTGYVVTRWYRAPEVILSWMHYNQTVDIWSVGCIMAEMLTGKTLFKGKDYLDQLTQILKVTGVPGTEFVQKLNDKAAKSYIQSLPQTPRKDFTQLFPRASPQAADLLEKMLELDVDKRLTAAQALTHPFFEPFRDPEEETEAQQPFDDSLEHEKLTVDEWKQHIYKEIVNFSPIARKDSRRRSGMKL
Chain of UniProt P54760 (whole entry, looked up): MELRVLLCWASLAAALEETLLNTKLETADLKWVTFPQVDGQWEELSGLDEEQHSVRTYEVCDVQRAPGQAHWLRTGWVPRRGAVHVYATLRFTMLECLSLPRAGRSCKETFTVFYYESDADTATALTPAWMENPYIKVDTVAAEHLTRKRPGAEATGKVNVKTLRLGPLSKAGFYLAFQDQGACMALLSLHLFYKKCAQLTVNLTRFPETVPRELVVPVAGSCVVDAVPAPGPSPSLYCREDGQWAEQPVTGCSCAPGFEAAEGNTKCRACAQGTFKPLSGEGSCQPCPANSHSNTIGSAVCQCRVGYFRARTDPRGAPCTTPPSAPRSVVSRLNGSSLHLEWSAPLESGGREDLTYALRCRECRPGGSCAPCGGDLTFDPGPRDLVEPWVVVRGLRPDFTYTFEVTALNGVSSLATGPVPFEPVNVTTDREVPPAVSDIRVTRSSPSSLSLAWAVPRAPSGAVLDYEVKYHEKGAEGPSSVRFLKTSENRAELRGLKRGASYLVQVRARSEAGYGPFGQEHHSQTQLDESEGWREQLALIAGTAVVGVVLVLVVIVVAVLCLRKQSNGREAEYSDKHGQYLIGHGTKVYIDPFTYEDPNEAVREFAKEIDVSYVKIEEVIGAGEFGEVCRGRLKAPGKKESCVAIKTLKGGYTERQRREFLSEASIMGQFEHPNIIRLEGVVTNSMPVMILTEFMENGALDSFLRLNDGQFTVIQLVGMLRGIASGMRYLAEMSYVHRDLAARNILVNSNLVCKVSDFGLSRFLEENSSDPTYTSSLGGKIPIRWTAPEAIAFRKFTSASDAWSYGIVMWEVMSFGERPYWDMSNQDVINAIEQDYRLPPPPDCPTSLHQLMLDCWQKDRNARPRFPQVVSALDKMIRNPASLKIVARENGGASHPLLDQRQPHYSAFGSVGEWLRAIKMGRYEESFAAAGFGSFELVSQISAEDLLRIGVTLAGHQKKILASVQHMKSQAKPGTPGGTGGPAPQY
Chain of UniProt Q8IU85 (whole entry, looked up): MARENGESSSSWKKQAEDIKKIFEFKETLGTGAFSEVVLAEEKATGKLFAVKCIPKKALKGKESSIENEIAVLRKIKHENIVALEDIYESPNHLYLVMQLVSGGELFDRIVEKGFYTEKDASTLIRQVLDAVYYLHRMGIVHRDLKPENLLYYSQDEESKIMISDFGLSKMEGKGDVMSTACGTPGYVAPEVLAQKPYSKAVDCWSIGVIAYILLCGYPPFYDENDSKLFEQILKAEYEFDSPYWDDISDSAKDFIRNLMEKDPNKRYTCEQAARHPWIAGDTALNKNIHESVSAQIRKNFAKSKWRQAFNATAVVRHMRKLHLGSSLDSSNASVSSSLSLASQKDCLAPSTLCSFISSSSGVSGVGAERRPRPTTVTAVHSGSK
Chain of UniProt O94804 (whole entry, looked up): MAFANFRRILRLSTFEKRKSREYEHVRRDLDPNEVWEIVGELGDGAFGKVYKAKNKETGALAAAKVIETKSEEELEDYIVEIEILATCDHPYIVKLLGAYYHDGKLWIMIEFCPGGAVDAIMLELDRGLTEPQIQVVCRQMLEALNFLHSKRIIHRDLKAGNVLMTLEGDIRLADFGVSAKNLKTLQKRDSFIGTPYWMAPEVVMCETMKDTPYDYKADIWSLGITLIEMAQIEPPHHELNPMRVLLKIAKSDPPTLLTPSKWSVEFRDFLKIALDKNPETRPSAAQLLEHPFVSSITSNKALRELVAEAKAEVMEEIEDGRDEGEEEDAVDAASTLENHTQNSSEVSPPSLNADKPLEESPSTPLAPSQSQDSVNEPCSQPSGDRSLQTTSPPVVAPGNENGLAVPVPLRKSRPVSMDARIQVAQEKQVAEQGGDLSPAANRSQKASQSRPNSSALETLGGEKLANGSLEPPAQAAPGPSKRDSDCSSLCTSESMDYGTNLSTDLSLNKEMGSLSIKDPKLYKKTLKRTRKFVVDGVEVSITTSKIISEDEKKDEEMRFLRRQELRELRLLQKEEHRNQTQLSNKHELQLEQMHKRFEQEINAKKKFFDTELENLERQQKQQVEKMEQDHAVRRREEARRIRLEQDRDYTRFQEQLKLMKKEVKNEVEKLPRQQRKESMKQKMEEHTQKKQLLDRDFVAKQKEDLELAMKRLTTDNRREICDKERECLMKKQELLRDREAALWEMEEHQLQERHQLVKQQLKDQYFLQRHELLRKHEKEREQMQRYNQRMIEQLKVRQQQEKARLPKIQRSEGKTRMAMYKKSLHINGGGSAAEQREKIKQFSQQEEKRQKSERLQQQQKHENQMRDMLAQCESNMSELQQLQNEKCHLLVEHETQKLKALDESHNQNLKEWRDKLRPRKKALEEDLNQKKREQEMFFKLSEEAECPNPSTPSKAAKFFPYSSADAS

Series 1 — species: mouse; medium: microsomes or S9; tested at: 2 µM; time: 0.5 h
| Structure (SMILES) | remaining compound [%] |
| --- | --- |
| CCOc1ccccc1NC(=O)c1cc2sccc2n1C | 0.0411 |
| COc1ccc(-c2c(-c3ccccc3)nn(-c3cccc4ccccc34)c2N(C)C)cc1OC | 1.06 |
| O=C(c1ccccc1)c1cc2occ(-c3ccccc3)c2cc1O | 1.62 |
| COc1ccc(Br)c2[nH]c(=O)cc(CCO)c12 | 0.91 |
| CC(Cn1cc(Br)cn1)c1nc2c3cnn(C)c3ncn2n1 (stereo not shown) | 0.0889 |
| CC(C)c1nc(C#N)c(NNC(=O)CC2CCCCC2)o1 | 34.1 |
| O=C1Nc2cc3ccc(OCc4ccccc4)cc3c3cccc1c23 | 31.9 |
| COc1ccc(OC)c(NC(=O)C2C3CC4OC(=O)C2C4C3)c1 (stereo not shown) | 73 |

Series 2 — read-out: cell-free assay; method: competition with immobilised ligand; tested at: 1 µM
SMILES: CNCc1ccccc1-c1csc([C@@H](C)Nc2nc(C)nc3cc(OC)c(OC)cc23)c1
| target | remaining binding [%] |
| --- | --- |
| EPHB2 (Homo sapiens, UniProt P29323) | 100 |
| HIPK4 (Homo sapiens, UniProt Q8NE63) | 86 |
| NEK10 (Homo sapiens, UniProt Q6ZWH5) | 73 |
| Ribosomal protein S6 kinase alpha-3, C-terminal kinase domain (RPS6KA3, Homo sapiens, UniProt P51812) | 76 |
| Aurora kinase C (AURKC, Homo sapiens, UniProt Q9UQB9) | 92 |
| MAP4K1 (Homo sapiens, UniProt Q92918) | 83 |
| GRK4 (Homo sapiens, UniProt P32298) | 80 |
| DSTYK (Homo sapiens, UniProt Q6XUX3) | 83 |
| Tyrosine-protein kinase JAK3, JH1 (JAK3, Homo sapiens, UniProt P52333) | 94 |
| MAP3K15 (Homo sapiens, UniProt Q6ZN16) | 60 |
| STK10 (Homo sapiens, UniProt O94804) | 95 |
| MAP3K19 (Homo sapiens, UniProt Q56UN5) | 71 |
| OXSR1 (Homo sapiens, UniProt O95747) | 67 |
| FLT3 (Homo sapiens, UniProt P36888, K663Q) | 77 |
| PHKG1 (Homo sapiens, UniProt Q16816) | 83 |
| BMP2K (Homo sapiens, UniProt Q9NSY1) | 87 |
| CDK8 (Homo sapiens, UniProt P49336) | 68 |
| PAK5 (Homo sapiens, UniProt Q9P286) | 95 |

Series 3 — read-out: enzyme activity; tested at: 5 µM
Structure (SMILES): O=C(Nc1cnn(-c2csc(C(=O)NC3COC3)c2)c1)Nc1c(F)cccc1Cl
| target | action | reference | remaining activity |
| --- | --- | --- | --- |
| CSNK1G2 (Homo sapiens, UniProt P78368) |  | untreated control | 89% |
| INSRR (Homo sapiens, UniProt P14616) |  | untreated control | 70.3% |
| Cyclin-dependent kinase 2, with cyclin A (CDK2, Homo sapiens, UniProt P24941) |  | untreated control | 91.3% |
| PKN1 (Homo sapiens, UniProt Q16512) |  | untreated control | 94.2% |
| MAPK13 (Homo sapiens, UniProt O15264) |  | untreated control | 92% |
| EPHB4 (Homo sapiens, UniProt P54760) |  | untreated control | 94.7% |
| CAMK1D (Homo sapiens, UniProt Q8IU85) |  | untreated control | 98.9% |
| MAP3K21 (Homo sapiens, UniProt Q5TCX8) | inhibitor |  | 94.3% |
| FER (Homo sapiens, UniProt P16591) |  | untreated control | 89.2% |

Series 4 — organism: Sarcocystis neurona; read-out: parasite activity; tested at: 10 µM; time: 96 h
| Compound | activity class |
| --- | --- |
| CCc1c(C)[nH]c2c1C(=O)C(CN1CCOCC1)CC2 (stereo not shown) | inactive |
| OCCN1C[C@H](O)[C@@H](O)[C@H](O)[C@H]1CO | inactive |
| CCc1ccc(CCOc2ccc(CC3SC(=O)NC3=O)cc2)nc1 (stereo not shown) | inactive |
| CC(C)(S)[C@@H](N)C(=O)O | inactive |
| CN1CCCC(n2nc(Cc3ccc(Cl)cc3)c3ccccc3c2=O)CC1 (stereo not shown) | active |

For quick reference, copied from above (series 2):
| target | remaining binding [%] |
| --- | --- |
| MAP3K19 (Homo sapiens, UniProt Q56UN5) | 71 |
| MAP3K15 (Homo sapiens, UniProt Q6ZN16) | 60 |
| GRK4 (Homo sapiens, UniProt P32298) | 80 |
| BMP2K (Homo sapiens, UniProt Q9NSY1) | 87 |
| MAP4K1 (Homo sapiens, UniProt Q92918) | 83 |
| Tyrosine-protein kinase JAK3, JH1 (JAK3, Homo sapiens, UniProt P52333) | 94 |
